Measurements gathered from unrelated publications.
Each line is one published result; not all experiments were run side by side. Several values in a cell are separate wells, animals, samples, runs or records. ± marks the error that the study gave.
FAAH: Fatty-acid amide hydrolase 1 (FAAH, Homo sapiens, UniProt O00519)
Chain of UniProt O00519 (whole entry, looked up): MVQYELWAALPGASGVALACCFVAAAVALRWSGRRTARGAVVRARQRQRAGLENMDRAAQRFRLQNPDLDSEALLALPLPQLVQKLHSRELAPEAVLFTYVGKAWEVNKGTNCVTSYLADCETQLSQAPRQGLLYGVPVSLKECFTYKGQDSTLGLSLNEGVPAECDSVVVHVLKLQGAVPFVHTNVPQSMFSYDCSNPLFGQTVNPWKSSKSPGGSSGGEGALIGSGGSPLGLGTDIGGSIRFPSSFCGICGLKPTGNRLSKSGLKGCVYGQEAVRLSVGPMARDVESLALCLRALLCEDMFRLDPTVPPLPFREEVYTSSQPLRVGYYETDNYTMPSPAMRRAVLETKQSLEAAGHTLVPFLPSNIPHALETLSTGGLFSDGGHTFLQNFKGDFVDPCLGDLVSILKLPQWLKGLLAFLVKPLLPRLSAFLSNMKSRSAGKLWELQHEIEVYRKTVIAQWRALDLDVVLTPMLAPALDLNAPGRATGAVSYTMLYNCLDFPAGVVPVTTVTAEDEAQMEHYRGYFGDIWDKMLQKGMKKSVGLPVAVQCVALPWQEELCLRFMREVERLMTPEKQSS
PARP1: Poly [ADP-ribose] polymerase 1 (PARP1, Homo sapiens, UniProt P09874)
Chain of UniProt P61073 (whole entry, looked up): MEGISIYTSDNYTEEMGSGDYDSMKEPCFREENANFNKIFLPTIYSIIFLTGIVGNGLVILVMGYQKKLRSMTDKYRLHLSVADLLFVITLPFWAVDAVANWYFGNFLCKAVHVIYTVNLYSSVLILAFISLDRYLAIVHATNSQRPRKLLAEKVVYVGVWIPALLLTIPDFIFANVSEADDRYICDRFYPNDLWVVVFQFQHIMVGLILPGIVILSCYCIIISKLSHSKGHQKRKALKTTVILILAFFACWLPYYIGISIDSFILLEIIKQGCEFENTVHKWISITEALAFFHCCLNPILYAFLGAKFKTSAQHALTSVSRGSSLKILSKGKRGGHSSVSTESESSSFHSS
Chain of UniProt A7T1N0 (whole entry, looked up): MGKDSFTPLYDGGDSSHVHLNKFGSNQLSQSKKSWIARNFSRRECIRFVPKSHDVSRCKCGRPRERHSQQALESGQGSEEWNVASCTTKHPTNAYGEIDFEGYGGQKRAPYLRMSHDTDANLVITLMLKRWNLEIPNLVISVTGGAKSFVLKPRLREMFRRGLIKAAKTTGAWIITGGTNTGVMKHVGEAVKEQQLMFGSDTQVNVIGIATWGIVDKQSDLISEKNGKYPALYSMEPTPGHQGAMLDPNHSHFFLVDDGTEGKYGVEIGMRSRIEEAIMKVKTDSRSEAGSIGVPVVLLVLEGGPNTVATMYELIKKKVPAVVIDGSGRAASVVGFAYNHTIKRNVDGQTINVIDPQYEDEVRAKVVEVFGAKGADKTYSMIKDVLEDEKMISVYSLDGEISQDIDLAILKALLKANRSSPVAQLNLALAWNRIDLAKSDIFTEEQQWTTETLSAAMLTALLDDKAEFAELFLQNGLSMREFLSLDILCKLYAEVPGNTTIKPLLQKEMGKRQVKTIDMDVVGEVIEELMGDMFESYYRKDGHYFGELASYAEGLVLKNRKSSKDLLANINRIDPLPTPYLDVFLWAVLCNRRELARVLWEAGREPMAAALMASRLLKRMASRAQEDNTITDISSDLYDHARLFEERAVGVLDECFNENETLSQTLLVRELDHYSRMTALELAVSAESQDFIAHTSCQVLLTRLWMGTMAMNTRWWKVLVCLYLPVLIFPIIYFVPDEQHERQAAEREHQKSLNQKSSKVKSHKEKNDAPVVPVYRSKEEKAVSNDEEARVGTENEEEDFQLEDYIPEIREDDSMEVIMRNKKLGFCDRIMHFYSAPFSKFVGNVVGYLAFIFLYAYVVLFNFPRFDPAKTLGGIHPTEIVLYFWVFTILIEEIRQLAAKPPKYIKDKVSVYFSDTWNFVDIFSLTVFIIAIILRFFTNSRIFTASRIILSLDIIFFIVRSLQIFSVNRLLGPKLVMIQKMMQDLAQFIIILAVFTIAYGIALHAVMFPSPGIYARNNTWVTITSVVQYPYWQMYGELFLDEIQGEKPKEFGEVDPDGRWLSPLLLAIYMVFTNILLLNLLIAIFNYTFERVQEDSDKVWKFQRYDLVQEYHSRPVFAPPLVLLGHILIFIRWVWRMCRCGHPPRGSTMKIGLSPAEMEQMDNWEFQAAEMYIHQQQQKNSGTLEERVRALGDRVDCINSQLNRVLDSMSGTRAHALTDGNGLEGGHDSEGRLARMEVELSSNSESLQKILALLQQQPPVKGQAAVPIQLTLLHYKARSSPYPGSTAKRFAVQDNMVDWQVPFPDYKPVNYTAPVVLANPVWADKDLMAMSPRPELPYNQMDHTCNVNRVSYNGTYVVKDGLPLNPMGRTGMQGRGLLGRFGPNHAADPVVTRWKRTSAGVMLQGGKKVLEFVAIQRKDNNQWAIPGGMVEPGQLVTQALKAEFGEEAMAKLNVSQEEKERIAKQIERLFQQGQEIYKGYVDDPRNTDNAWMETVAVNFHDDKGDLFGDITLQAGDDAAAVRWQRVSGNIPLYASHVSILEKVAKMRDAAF
Chain of UniProt P32745 (whole entry, looked up): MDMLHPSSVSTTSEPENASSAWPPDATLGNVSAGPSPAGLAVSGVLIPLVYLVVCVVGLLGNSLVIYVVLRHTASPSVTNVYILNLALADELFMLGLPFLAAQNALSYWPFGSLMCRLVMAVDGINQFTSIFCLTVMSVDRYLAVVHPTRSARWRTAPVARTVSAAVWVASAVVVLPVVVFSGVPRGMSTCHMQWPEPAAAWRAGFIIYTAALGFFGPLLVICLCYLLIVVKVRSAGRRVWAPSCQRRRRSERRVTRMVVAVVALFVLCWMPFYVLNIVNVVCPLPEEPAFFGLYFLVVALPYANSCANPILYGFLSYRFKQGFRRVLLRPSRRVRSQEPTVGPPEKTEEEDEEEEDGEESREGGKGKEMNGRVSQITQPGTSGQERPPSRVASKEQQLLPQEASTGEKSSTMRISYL
Chain of UniProt P09874 (whole entry, looked up): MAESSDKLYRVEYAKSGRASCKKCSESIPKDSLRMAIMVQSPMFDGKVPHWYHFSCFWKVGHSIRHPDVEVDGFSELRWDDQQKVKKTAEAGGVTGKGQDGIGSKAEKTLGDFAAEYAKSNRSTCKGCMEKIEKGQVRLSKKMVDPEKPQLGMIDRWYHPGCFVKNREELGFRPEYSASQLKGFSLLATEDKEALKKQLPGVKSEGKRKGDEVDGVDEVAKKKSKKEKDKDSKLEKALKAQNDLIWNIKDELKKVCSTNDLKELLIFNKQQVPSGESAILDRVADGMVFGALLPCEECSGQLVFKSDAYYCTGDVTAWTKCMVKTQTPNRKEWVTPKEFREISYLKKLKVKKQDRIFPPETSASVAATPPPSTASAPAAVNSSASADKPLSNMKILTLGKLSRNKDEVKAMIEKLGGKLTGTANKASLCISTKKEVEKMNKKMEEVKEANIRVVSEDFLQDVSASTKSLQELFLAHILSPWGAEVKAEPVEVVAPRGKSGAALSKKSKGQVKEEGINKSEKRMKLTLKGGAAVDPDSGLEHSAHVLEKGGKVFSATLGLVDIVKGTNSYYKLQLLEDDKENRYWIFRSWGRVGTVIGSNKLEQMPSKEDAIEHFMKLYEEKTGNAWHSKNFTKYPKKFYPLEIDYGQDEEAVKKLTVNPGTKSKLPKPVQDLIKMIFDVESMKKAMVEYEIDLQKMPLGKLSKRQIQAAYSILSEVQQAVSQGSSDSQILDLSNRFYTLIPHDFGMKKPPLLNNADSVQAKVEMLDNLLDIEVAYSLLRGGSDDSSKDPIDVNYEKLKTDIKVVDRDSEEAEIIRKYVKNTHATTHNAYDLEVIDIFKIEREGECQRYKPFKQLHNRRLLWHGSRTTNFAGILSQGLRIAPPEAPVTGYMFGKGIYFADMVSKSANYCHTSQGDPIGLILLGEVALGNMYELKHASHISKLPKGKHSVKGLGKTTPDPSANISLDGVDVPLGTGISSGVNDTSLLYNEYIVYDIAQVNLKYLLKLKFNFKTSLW
Chain of UniProt O94788 (whole entry, looked up): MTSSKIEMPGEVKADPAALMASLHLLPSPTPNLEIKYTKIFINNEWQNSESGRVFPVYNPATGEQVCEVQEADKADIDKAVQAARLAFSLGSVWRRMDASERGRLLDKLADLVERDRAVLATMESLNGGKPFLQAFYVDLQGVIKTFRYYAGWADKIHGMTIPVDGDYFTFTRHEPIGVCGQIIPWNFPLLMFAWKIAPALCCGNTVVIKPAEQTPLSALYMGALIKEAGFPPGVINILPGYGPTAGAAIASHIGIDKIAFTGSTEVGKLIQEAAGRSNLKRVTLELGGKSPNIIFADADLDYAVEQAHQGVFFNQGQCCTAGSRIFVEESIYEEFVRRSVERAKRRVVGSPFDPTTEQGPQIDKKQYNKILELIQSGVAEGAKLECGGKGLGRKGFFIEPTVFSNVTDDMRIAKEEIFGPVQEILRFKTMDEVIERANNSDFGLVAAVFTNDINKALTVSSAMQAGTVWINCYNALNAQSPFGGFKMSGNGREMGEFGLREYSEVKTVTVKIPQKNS
Chain of UniProt Q9UBY5 (whole entry, looked up): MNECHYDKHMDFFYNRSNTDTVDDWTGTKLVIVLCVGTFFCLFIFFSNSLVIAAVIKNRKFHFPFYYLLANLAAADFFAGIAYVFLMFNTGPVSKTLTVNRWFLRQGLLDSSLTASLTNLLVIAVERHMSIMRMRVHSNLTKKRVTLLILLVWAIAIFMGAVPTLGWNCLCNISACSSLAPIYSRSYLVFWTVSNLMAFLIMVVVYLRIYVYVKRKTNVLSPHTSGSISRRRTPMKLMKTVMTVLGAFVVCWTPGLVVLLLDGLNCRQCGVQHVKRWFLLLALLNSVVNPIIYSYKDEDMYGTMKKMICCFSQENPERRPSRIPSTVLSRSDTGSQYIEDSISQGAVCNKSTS
Chain of UniProt P28074 (whole entry, looked up): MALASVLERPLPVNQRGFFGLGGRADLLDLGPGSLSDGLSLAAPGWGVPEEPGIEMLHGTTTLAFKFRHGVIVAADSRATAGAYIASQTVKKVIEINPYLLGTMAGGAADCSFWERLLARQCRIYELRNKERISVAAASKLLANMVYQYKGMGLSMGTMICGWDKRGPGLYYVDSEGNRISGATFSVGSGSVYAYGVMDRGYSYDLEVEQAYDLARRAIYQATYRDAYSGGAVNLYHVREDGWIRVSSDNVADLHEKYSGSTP

SMILES	target	assay	system	setting	IC50
O=c1[nH]c2ccccc2n1C1CCN(CCCC(c2ccc(F)cc2)c2ccc(F)cc2)CC1	ABCC1 (Homo sapiens, UniProt P33527)	substrate efflux, inhibitor, flow cytometry	ABCC1-overexpressing SupT1-Vin cells	added: BODIPY-FL-histamine 500 nM	11.1 ± 6.4 µM
COc1ccc2c(NC3CCNCC3)nc(NCc3ccc(CNCCCNC4CCCCCC4)cc3)nc2c1	CXCR4 (Homo sapiens, UniProt P61073)	ligand displacement, radioligand	–	cell membranes	0.0128 µM and ~0.01 µM
COC(=O)c1ccc(O)cc1	FAAH	enzyme activity, inhibitor, fluorescence	–	with preincubation	> 100 µM
CC1=C(COc2ccc(Cl)cc2)C(=O)c2ccccc2C1=O	TXNRD1 (Homo sapiens, UniProt Q16881)	enzyme activity, inhibitor	–	pH 7.4, with preincubation	0.7 µM
O=S(=O)(c1cc(C(=S)Nc2cc(F)c(F)c(F)c2)c(Cl)cc1Cl)N1CCOCC1	LPAR3 (Homo sapiens, UniProt Q9UBY5)	Ca2+ mobilization, antagonist	RH7777	added: LPA at EC50	> 100 µM
CC(C)NCc1ccc(C[C@@H]2NC(=O)[C@@H](N(C)C(=O)c3ccc4ccccc4c3)NC(=O)[C@H](Cc3ccccc3)NC(=O)[C@@H](N)CSSC[C@@H](C(N)=O)NC(=O)[C@H](Cc3ccc(O)cc3)NC2=O)cc1	SSTR3 (Homo sapiens, UniProt P32745)	ligand displacement, radioligand	–	cell membranes	0.317 µM and 0.381 µM
CS(=O)(=O)c1ccc(-c2nn(-c3ccc(C#N)cc3)cc2C(=O)Nc2cccc(F)c2)cc1	ALDH1A2 (Homo sapiens, UniProt O94788)	enzyme activity, inhibitor, absorbance	–	–	0.54 µM
O=C(NC1CCCCC1)OCc1cn(Cc2ccccc2F)nn1	FAAH	enzyme activity, inhibitor, fluorescence	–	cell membranes	0.619 µM
CC(C)CCCCC/C=C/C=C/C(=O)N[C@H](C(=O)N[C@H]1C[C@@H](O)CCNC(=O)/C=C/[C@H](C)NC1=O)[C@@H](C)O	PSMB5 (Homo sapiens, UniProt P28074)	probe labelling, inhibitor, in situ competitive profiling	RPMI-8226	6 h	0.0075 µM
COc1ccccc1C=NNc1nc2ccccc2c(=O)n1-c1ccccc1	PARP1	enzyme activity	–	–	0.046 µM
C#Cc1ccc2c(C(F)(F)F)cc(=O)oc2c1	Cytochrome P450 1A2 (CYP1A2, Homo sapiens, UniProt P05177)	enzyme activity, inhibitor	–	6 min, pH 7.6	2.69 µM
COc1ccc(OC)c(NC(=O)CSc2nnc(-c3cc4cccc(OC)c4o3)n2-c2ccccc2)c1	fungal tyrosinase	enzyme activity, inhibitor, dopachrome absorbance	–	pH 6.8, 37 °C, added: L-tyrosine substrate	2.12 ± 5.78 µM
CCCCC(C(=O)COc1c(F)c(F)cc(F)c1F)n1cc(C2(N)CCNCC2)nn1 (stereo not shown)	DPAP1 (Plasmodium falciparum, UniProt Q8IIJ9)	inhibitor, fluorogenic substrate	Plasmodium falciparum lysate	30 min	> 20 µM
CNC(=O)NC	Urea transporter 2 (Rattus norvegicus, UniProt Q62668)	urea transport, inhibitor	MDCK expressing rat UT-A1	20 min	22000 ± 1000 µM
O=P(O)(OC[C@H]1OC(O)[C@H](O)[C@@H]1O)OP(=O)(O)OC[C@H]1O[C@@H](n2cnc3c2ncn2ccnc32)[C@H](O)[C@@H]1O (stereo partly shown)	TRPM2 (Nematostella vectensis, UniProt A7T1N0)	ion current, inhibitor, patch clamp	–	–	269 µM and ~270 µM
CN1CCC2(CC1)c1ccccc1N(Cc1ccc(C(=O)NO)s1)C2c1ccc(Cl)cc1 (stereo not shown)	Histone deacetylase 8 (Schistosoma mansoni, UniProt A5H660)	enzyme activity, inhibitor, Fluor-de-Lys	–	varied substrate concentration, added: Fluor-de-Lys substrate 50 µM	0.11 ± 0.011 µM
CN1CCN(C[C@@H]2COc3cccc(C(N)=O)c3O2)CC1	PARP1	–	–	–	> 5 µM
O=c1cc(N2CCOCC2)oc2c(OCc3ccccc3)cccc12	PIK3CB (Homo sapiens, UniProt P42338)	enzyme activity, inhibitor	–	–	0.18 µM
Nc1ncnc2c1ncn2[C@@H]1O[C@H](COP(=O)(O)OP(=O)(O)C(Cl)(Cl)P(=O)(O)O)[C@@H](O)[C@H]1O	FLT3 (Homo sapiens, UniProt P36888)	enzyme activity, inhibitor, HotSpot kinase	–	added: ATP 1 µM	0.12 µM
